Experimental data gathered from unrelated publications.
Parts stem from different laboratories: compare values within a part only.

Series 1 — technique: universal PBM; form: double-stranded DNA, one strand shown; matrix: in vitro; tested at: not given; direction: higher = stronger binding; endpoint: E-score
Target: Sal-like protein 4, full length isoform B (SALL4, Homo sapiens, UniProt Q9UJQ4-2, residues 1-616)
Setting: 8-mer, flanks averaged, mean of replicates
Residues (chain): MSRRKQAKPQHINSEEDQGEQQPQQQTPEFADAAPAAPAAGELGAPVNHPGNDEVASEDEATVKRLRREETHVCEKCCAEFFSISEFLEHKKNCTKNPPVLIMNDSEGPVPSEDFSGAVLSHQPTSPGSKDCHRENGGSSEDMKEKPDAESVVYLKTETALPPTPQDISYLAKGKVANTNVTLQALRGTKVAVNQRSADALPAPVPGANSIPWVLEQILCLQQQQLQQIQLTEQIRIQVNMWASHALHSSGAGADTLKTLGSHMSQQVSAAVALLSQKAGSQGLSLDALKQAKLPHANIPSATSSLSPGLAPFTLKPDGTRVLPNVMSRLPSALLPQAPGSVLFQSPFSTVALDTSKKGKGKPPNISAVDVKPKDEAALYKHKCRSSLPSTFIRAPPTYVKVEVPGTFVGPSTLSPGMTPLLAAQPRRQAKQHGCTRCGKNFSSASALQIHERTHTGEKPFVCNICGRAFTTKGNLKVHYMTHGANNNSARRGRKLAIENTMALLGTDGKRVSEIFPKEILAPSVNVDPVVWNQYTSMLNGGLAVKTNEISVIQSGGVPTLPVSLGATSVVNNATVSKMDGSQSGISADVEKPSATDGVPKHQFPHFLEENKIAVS
TACATAGA: 0.272
AGTGCTCC: -0.212
ACTCCGCA: -0.236
AAGGGACT: -0.0724
ACCCCAGC: -0.138
TCTGAACA: 0.0829

Series 2 — technique: protein binding microarray; form: double-stranded DNA, one strand shown; matrix: in vitro; tested at: not given; baseline: not given; direction: higher = stronger binding; endpoint: E-score
Target: Histone acetyltransferase KAT6A, winged helix 2, GST fusion (KAT6A, Homo sapiens, UniProt Q92794, residues 85-181)
Setting: 8-mer, flanks averaged, mean of 2 arrays, mostly near background
Target sequence (chain): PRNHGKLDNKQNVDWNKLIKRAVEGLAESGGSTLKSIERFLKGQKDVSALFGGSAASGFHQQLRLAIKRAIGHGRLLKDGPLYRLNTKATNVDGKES
CATAGGAG: 0.00624
CGGCTTCC: 0.228
ACGCCCAG: 0.00709
CGTTGATC: 0.0583

Other studies, line by line
UNK zinc fingers 1-6, GST-SBP tag: RING finger protein unkempt homolog, zinc fingers 1-6, GST-SBP tag (UNK, Homo sapiens, UniProt Q9C0B0, residues 30-357)
Chain of UniProt Q9C0B0 (30-357, looked up): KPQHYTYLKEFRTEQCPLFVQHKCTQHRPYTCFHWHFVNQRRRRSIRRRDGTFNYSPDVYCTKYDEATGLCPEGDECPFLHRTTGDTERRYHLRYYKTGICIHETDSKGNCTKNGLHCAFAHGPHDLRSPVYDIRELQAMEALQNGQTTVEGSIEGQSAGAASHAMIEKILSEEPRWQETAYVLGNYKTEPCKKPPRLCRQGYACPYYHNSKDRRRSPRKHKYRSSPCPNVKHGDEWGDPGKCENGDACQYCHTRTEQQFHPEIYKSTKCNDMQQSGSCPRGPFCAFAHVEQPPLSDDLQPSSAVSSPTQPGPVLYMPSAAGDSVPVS
GGGAGUUCUACAGUCCGACGAUCCAUGCUCUUGCACUUUACAGAACUGAUGAUUACUUAGAUCAACCGUGUUAUGAAACCAUUAACCGAAUUAAACUUUACAGUGAAUCUUUGGCAAGAUAUGGCAAAAGCCCAUACCUUUAUCAACAGAGGAUUGAGCAUCA  bound/input enrichment (UNK zinc fingers 1-6, GST-SBP tag; RNA Bind-n-Seq; RNA, in vitro; not given, RNA with constant flanks, ends assumed; baseline: input RNA pool, higher = stronger binding): 0.228 ratio
PhoQ, residues 284 288 289 292 302 303 AGHLVA  fold induction (PhoP, residues 12 14 15 18 19 VQGLL (Escherichia coli, UniProt P23836); Sort-seq, measured: YFP reporter; E. coli; PhoQ-PhoP variant library, with: 10 µM Mg2+; baseline: high Mg2+ state, higher = stronger signaling): 18.7
GGGAGUUCUACAGUCCGACGAUCCACUAGGGGUUGGGAAGGGCGGCGGACGGUGCCGGGGGGAGAUUGGCCUGGCAGGCCCUUUCCGCUACCCAUUACUGGACCAGAAAGAUGACAUCUAUCAUCAAGUUAACCACCCUCUCUCAACAGAGGAUUGAGCAUCA  bound/input enrichment (UNK zinc fingers 1-6, GST-SBP tag; RNA Bind-n-Seq; RNA, in vitro; not given, RNA with constant flanks, ends assumed; baseline: input RNA pool, higher = stronger binding): 0.34 ratio

Some of these lines once more (other studies, line by line):
GGGAGUUCUACAGUCCGACGAUCCACUAGGGGUUGGGAAGGGCGGCGGACGGUGCCGGGGGGAGAUUGGCCUGGCAGGCCCUUUCCGCUACCCAUUACUGGACCAGAAAGAUGACAUCUAUCAUCAAGUUAACCACCCUCUCUCAACAGAGGAUUGAGCAUCA  bound/input enrichment (UNK zinc fingers 1-6, GST-SBP tag; RNA Bind-n-Seq; RNA, in vitro; not given, RNA with constant flanks, ends assumed; baseline: input RNA pool, higher = stronger binding): 0.34 ratio
